Measurements gathered from unrelated publications.
A part holds a random share of what one study measured. Positions count from the first letter of the parent shown.
Sequence of UniProt O23661 (whole entry, looked up): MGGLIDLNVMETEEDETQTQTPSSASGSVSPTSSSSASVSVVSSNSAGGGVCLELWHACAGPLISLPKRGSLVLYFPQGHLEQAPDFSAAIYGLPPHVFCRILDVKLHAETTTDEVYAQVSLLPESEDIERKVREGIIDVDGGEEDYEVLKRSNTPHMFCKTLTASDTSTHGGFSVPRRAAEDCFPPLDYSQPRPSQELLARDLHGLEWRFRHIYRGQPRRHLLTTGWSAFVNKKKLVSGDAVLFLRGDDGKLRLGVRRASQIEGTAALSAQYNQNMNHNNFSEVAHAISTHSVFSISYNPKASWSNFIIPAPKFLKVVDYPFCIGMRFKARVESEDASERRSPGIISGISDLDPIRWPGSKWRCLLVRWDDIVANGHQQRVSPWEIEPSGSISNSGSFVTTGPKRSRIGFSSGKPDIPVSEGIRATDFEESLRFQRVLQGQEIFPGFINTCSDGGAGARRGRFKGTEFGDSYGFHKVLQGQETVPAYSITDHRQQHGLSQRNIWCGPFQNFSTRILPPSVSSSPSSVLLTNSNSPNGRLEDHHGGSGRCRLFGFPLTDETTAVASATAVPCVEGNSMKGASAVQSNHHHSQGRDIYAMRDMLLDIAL
Sequence of UniProt P93024 (whole entry, looked up): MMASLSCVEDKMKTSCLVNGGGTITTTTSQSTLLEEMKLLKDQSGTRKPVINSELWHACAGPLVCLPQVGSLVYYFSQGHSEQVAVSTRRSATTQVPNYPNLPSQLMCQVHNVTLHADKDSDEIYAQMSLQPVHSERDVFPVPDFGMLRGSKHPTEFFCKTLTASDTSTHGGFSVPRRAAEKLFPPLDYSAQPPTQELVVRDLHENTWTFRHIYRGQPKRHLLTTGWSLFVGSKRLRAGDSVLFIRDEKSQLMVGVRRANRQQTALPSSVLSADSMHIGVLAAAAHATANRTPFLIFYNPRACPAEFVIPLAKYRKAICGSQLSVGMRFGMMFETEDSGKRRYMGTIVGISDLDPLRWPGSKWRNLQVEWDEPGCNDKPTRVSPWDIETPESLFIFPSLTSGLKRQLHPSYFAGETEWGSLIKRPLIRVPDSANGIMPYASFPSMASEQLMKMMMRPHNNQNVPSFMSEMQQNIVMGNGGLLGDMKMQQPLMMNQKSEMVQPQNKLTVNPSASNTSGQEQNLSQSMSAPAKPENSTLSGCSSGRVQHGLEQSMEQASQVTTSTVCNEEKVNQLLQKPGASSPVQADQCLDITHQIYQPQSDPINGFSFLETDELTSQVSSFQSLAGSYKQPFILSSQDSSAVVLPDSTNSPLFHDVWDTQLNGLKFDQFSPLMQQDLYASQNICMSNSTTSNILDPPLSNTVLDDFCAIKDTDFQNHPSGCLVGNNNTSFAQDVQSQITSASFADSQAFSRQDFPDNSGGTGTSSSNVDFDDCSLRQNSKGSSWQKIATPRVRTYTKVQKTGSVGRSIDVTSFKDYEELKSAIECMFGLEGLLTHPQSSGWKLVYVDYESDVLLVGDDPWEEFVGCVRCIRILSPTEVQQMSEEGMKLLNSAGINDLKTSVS
Sequence of UniProt Q93WC4 (whole entry, looked up): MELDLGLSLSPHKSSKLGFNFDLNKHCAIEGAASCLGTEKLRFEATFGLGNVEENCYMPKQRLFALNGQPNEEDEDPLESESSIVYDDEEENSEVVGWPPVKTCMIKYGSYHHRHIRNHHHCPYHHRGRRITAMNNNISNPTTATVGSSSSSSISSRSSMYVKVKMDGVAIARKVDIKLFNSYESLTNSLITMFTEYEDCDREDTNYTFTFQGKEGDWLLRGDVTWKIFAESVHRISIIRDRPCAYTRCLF
Sequence of UniProt Q9C5W9 (whole entry, looked up): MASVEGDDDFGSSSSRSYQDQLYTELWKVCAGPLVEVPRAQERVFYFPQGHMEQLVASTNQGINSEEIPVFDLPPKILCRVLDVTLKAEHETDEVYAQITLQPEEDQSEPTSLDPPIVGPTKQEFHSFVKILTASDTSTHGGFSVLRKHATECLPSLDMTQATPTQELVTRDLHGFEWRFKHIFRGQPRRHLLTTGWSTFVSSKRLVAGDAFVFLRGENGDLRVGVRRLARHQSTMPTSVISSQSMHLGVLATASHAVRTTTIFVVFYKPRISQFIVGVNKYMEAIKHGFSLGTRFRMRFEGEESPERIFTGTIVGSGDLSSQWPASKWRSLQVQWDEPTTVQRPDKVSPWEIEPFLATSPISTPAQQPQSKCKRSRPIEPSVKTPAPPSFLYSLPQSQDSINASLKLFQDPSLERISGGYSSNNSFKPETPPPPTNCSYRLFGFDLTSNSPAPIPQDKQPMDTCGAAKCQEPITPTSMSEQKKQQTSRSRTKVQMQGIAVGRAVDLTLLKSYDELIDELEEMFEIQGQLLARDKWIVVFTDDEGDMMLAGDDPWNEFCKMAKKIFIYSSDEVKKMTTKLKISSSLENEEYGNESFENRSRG
Sequence of UniProt Q9FX25 (whole entry, looked up): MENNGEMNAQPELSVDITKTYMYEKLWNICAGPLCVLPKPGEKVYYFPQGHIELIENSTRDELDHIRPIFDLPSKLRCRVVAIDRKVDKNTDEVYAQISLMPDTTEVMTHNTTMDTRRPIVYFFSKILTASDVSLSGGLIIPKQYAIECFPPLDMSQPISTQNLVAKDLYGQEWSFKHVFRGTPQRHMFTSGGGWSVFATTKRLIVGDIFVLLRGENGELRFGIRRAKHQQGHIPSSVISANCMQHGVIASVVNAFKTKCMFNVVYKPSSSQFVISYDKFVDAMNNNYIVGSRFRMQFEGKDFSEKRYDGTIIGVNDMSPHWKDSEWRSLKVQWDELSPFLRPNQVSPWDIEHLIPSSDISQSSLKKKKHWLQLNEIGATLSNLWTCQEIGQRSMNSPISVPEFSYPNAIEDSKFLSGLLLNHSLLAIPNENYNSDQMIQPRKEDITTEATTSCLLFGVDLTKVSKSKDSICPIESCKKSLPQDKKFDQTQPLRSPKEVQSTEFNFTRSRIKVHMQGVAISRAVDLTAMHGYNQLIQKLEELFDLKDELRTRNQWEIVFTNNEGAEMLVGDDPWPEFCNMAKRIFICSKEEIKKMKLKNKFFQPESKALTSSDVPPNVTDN
Sequence of UniProt Q9XFM0 (whole entry, looked up): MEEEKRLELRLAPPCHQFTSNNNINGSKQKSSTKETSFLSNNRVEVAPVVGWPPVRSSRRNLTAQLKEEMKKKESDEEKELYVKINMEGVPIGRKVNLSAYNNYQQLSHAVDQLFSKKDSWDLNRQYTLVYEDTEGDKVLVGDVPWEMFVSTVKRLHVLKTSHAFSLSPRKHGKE
Sequence of UniProt Q9ZTX8 (whole entry, looked up): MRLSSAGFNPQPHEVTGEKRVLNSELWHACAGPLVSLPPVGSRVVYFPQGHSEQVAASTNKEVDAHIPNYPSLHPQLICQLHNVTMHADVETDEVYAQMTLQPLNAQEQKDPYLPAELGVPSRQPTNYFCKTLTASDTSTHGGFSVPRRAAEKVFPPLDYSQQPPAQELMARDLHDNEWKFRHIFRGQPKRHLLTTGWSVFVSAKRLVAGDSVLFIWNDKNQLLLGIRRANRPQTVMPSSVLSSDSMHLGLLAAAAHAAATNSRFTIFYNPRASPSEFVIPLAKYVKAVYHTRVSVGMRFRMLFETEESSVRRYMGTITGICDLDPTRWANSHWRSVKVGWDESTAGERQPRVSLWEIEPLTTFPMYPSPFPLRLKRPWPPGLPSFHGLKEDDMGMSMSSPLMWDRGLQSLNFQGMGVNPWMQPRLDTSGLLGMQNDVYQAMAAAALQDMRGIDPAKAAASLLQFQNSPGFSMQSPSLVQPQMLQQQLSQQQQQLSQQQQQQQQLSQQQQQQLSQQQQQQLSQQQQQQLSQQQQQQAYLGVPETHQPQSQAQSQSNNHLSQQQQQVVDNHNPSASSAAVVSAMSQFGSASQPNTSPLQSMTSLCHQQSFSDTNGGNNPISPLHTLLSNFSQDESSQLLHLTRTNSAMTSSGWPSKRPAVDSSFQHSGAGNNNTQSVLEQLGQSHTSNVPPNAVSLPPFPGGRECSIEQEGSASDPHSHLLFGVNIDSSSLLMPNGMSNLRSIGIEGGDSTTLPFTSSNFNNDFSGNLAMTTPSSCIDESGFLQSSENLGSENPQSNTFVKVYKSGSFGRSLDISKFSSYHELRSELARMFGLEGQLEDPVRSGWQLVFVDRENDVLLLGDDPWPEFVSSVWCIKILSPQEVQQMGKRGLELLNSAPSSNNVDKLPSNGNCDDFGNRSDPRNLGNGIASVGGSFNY

Sample 1
Target: CCNE2, cyclin fold, Cln2 fusion (human)
Technique: yeast growth competition, sequencing
Matrix: yeast
Notes: weak parent motif
Reference: not given
Direction: higher = stronger binding
Starting sequence: RP1L1 docking peptide (human); TLGLGPLSFTLED; partner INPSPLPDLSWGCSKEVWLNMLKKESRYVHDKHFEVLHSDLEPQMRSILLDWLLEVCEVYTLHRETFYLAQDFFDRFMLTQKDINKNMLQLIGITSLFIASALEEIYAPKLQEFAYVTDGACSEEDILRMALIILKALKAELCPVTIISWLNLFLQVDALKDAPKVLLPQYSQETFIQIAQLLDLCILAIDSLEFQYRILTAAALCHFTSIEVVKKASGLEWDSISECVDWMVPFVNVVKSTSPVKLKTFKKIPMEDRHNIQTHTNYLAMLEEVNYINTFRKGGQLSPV
Change	normalised enrichment score
F9A	0.0858
G5A	-0.134
S8A	-0.156
T10A	0.112
E12A	-0.494
L11A	-0.165
P6A	-0.0733

Sample 2
Target: Fragile X messenger ribonucleoprotein 1, C-terminal low-complexity region (Fmr1, Mus musculus, UniProt P35922)
Technique: RNA Bind-n-Seq
Molecule type: RNA
Matrix: in vitro
Concentration: 200 nM
Notes: whole 134-nt RNA, ends assumed
Added: 150 mM LiCl
Reference: input library
Direction: higher = stronger binding
All molecules: 7-deaza-guanosine replaces G
Sequence	log2 enrichment
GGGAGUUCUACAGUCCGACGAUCCUCAAGUCCUGUGCUACACAUCGUAUGUACCGAAUCGGAAAGGAAAAAGGUGGAAAGUAUUAUGUUACGCCGUUCGGAUCUGCACUUCCAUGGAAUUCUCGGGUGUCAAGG	-0.772
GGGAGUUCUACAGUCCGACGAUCGCAGGAAGUAAAAACCAAUGGAAAUGCUUCGGAUAGUGGCAGGGGUGGGGGUUGCUAAGGAAAGGGUGGGAUGGGAGUGGGUAAAGAGUUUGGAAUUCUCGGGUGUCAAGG	1.61
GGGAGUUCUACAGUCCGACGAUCUCAAGUCCUGUGCUACACAUCGUAUGUACCGAAUCGGUUUUUUUGGUUUGGAGGAAAGUAUUAUGUUACGCCGUUCGGAUCUGCACUUCCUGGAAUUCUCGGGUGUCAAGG	-1.36
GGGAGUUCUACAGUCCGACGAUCCCUGUGCUACACAUCGUAUGUACCGAAUCGGUUUUUUGGGGUUUUUUGGGUUUUUUGGGGAAAGUAUUAUGUUACGCCGUUCGGAUCUGCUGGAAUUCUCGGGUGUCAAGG	-1.12
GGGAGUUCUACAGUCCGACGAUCUGGGAGGUGGAUUUUGUUUAUUUUUGUAGCUCAUUUCCAGGGGUGGGAAUUUUUUUUUAAUAUGUGUCAUGAAUAAAGUUGUUUUUGAAAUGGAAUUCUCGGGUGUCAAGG	0.351
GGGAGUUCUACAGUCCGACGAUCAGUCCUGUGCUACACAUCGUAUGUACCGAAUCGGGGUGGGGAAAAAGGGGUUUGGGGAAAGUAUUAUGUUACGCCGUUCGGAUCUGCACUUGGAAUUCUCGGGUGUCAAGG	-1.35
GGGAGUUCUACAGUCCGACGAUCAAGUCCUGUGCUACACAUCGUAUGUACCGAAUCGGCCCCGGGCCCCGGGGCCCCGGAAAGUAUUAUGUUACGCCGUUCGGAUCUGCACUUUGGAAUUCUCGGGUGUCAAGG	-1.04
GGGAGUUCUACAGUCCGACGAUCCUGUGCUACACAUCGUAUGUACCGAAUCAAAUUUUUUUAAACCCCCCCAAAUUUUUUUAAAAAAGUAUUAUGUUACGCCGUUCGGAUCUGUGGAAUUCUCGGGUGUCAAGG	0.718
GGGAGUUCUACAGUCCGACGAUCUCGCCCUGGUGGCAUGCGGGGAGGAAGAGGUGGCCUCAUGGAUCGUGGUGGUCCCGGUGGAAUGUUCAGAGGUGGCCGUGGUGGAGACAGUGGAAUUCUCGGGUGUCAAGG	0.257
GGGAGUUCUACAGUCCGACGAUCAGUCCUGUGCUACACAUCGUAUGUACCGAAUCGGGGUGGGGAAAAAAAGGGGUGGGGAAAGUAUUAUGUUACGCCGUUCGGAUCUGCACUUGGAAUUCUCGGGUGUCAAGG	0.0494
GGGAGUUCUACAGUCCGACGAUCCAAGUCCUGUGCUACACAUCGUAUGUACCGAAUCGGAAAAAGGAGGAAAAAAAGGAAAGUAUUAUGUUACGCCGUUCGGAUCUGCACUUCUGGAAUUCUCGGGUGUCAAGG	-0.392

Sample 3
Target: RNA binding protein fox-1 homolog 2, RRM domain, GST-SBP tag (RBFOX2, Homo sapiens, UniProt O43251-10, residues 100-194)
Technique: RNA Bind-n-Seq
Molecule type: RNA
Matrix: in vitro
Concentration: 365 nM
Notes: natural RNA segment, single round, ends assumed
Reference: no-protein control
Direction: higher = stronger binding
Residues (chain): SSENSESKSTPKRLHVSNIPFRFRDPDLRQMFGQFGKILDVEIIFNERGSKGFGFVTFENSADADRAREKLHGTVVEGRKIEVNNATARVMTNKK
Sequence	RBNS enrichment (R)
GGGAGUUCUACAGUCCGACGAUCCCCUCUUGGCUCAUUCCAAGCUUGGCCAAAUUGGGGAAGUGGGAUGGAGGUUGCCCUGCAUCCCCCCUCCUCUGCCUGAGUGUGUCUUUGUAAUGUCAGCUGGCAUCAUAUGGAAUUCUCGGGUGCCAA	0.538
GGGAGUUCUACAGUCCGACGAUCACACGUUUUCAUGAAGGAAUAACUAAGUUAAAGUGAAAAUGGUUGUGAUUUACAGAAAUAAAAUCCCAGUGUCCACUCAAUGCUGGUCUGACUCAGAUCCAGUUGGGUGGUGGAAUUCUCGGGUGCCAA	0.284
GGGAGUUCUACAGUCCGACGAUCUUGUGUGUGCAAGAAAACUAGGCAAUGUACUCUUCCGAUGUUUGUGUCACACAACACUGAUGUGACUUUUAUAUGCUUUUUCUCAGAUCUGGUUUCUAAGAGUUUUGGGGUGGAAUUCUCGGGUGCCAA	1.83
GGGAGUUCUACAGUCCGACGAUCAACUGGAACCAUUGGCAGCUGCACGCUCAUUACUACCCUCCGCUCCUGCGCUCUGCCACUGUCCGGAAAUUCAUGGUUGGCUACGAAAUGCUUGCUCAGGCUCAGAGGGAUGGAAUUCUCGGGUGCCAA	1.96
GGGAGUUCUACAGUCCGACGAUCCCAGAAUGUAAGAGAGUUGUCUAAGCAGCAGCUGAGAGAGAGCGGAGCCUAUUUCUAGCCACUCCUGUUGACAGUGCACCUGAAGGGCUGGGAUGCGUUUUUCUUGGUGUUGGAAUUCUCGGGUGCCAA	1.26
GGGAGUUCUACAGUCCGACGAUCUAUGUCCCUCAACCCCCGAAACAAGGCUUCUCUCAGCCUCCCCACCAGUGAUGGAUAACAGCUCCUAUUCUCAGCUGACCUGACUGAGCCAACCCAUGAACUCUUCACUCUGGAAUUCUCGGGUGCCAA	0.321
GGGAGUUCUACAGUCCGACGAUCCCAUAGCUCAUCACCCCUGUCUCCUGCUGAAUGUGCAGGGCUGAUGUGGCACUGAGGAGCUGACUUUGGUCAAAGGCCAGGCUCUGCCCAGCAGGGGACUUGACUGCCCUUGGAAUUCUCGGGUGCCAA	0.471
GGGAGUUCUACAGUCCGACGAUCGUUUAGUGUCGUUUGCCAUGGUAUUUCACAGUGAAACAUGGAUACUCUCCACACAUCAUUUACUUCAUGCUGUGUACUUAUGUACUGGUUUUUGCAUUUUACUCACUUGAUGGAAUUCUCGGGUGCCAA	0.625
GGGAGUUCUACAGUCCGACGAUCUUUAUUUAUUUGUGUUUAUAUAUGUCAAUUGGUUUCCUUUCUUAGCUUGAUAUUGCCUAGCUUUGUUGUUUUAAUUAACUUUCUAUUAGAGAGACUGUAUAUAUUUUUUCUGGAAUUCUCGGGUGCCAA	2.71
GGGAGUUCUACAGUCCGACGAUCGAUGUUUUAUAUAUAGAGAGUAGUCUCAUUAGUUUUUGUUACUGUAAUGUUUGAAGUCUCAAAUGCACCGUAUUACGGUAAAUAACAUGGUUUUGAAAACUUUUUUUUAUUGGAAUUCUCGGGUGCCAA	0.758
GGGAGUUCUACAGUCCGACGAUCUUUUUAAGACAAAUGUGAAAAUGACCAAAUCACACCAAGCAACUAACUCAAAAAUUAGGAUGCAAGAGAAAAUACUUCUCUAGAUCCAAACACUGGCCUUCUGUUCCUCUUGGAAUUCUCGGGUGCCAA	0.289
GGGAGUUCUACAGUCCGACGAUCGUUAUGCCUUCUGGCUACUACAGAAUCUCCGCAGACCUUUUAGUUAUGAGUAGAAGCAAUAAGAAGGUGUCCUUAUGGUCUUAGGAAUAAUAGUUCCAAUGUAUUGGCAUUGGAAUUCUCGGGUGCCAA	1.05

Sample 4
Sequence: B1 (IAA16)
Technique: two-hybrid
Direction: higher = firmer interaction
B1: IAA16 (Arabidopsis thaliana, UniProt O24407); chain MINFEATELRLGLPGGNHGGEMAGKNNGKRGFSETVDLKLNLSSTAMDSVSKVDLENMKEKVVKPPAKAQVVGWPPVRSFRKNVMSGQKPTTGDATEGNDKTSGSSGATSSASACATVAYVKVSMDGAPYLRKIDLKLYKTYQDLSNALSKMFSSFTIGNYGPQGMKDFMNESKLIDLLNGSDYVPTYEDKDGDWMLVGDVPWEMFVDSCKRIRIMKGSEAIGLAPRALEKCKNRS
partner	scale	positive tests
ARF6 790-935 (Arabidopsis thaliana, UniProt Q9ZTX8)	reference: out of 4 tests	3
IAA29 (Arabidopsis thaliana, UniProt Q93WC4)	reference: out of 4 tests	1
ARF5 788-902 (Arabidopsis thaliana, UniProt P93024)	reference: out of 4 tests	4
ARF18 482-602 (Arabidopsis thaliana, UniProt Q9C5W9)	reference: out of 3 tests	0
ETT (Arabidopsis thaliana, UniProt O23661)	reference: out of 4 tests	0
ARF13 (Arabidopsis thaliana, UniProt Q9FX25)	reference: out of 4 tests	0
IAA28 (Arabidopsis thaliana, UniProt Q9XFM0)	reference: out of 4 tests	3

Excerpt of the above (sample 2):
Sequence	log2 enrichment
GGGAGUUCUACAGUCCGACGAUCGCAGGAAGUAAAAACCAAUGGAAAUGCUUCGGAUAGUGGCAGGGGUGGGGGUUGCUAAGGAAAGGGUGGGAUGGGAGUGGGUAAAGAGUUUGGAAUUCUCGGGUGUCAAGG	1.61
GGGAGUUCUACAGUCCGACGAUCUCAAGUCCUGUGCUACACAUCGUAUGUACCGAAUCGGUUUUUUUGGUUUGGAGGAAAGUAUUAUGUUACGCCGUUCGGAUCUGCACUUCCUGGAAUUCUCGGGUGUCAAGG	-1.36
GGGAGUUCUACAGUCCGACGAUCCCUGUGCUACACAUCGUAUGUACCGAAUCGGUUUUUUGGGGUUUUUUGGGUUUUUUGGGGAAAGUAUUAUGUUACGCCGUUCGGAUCUGCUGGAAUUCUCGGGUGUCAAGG	-1.12
